Measured values gathered from unrelated publications.
Each line is one published result; not all experiments were run side by side.

The Cmax of `C=CCn1c(=O)c2cnc(Nc3ccc(N4CCN(C)CC4)cc3)nc2n1-c1cccc(C(C)(C)O)n1` is reported as 703 nM (human; oral, 150 mg twice daily, monotherapy lead-in, -5 days; geometric mean).
With `COc1ncc(-c2nc3c(n2C(C)C)[C@H](c2ccc(Cl)cc2)N(c2cc(Cl)cn(C)c2=O)C3=O)c(OC)n1` the Cmax was 1040 ng/mL (LC-MS/MS, noncompartmental; human, plasma; oral, 120 mg, C1D1, high-dose, geometric mean).
`Cl.[2H]C([2H])([2H])CC(=O)c1cnc(NC(=O)C2CC2)cc1Nc1cccc(-c2ncn(C([2H])([2H])[2H])n2)c1OC` gave a Cmax of 38.6 ng/mL (geometric mean; human; oral, 5 mg single dose, fasted, liquid).
For `O=C(COc1ccc(Cl)cc1)NC12CC(c3nnc([C@H]4C[C@@H](OC(F)(F)F)C4)o3)(C1)C2`, the Cmax was 169 nM (healthy human volunteers fasted, plasma; oral, 15 mg single dose, geometric mean).
`CCN1CCN(Cc2ccc(Nc3ncc(F)c(-c4cc(F)c5nc6n(c5c4)[C@H](C)CCC6)n3)nc2)CC1` gave a Cmax of 136 ng/mL (human, plasma; 300 mg single dose, mean).
With `CCn1cc(C(=O)N2CCOCC2)c(=O)c2cc(NC3Cc4ccccc4C3)cnc21` the Cmax was 1570 ng/mL (human, fed; oral suspension, 300 mg single dose, arithmetic mean).
`C=CC(=O)N(C)CCOc1c(N)ncnc1-c1cc(F)cc(NC(=O)c2ccc(C3CC3)cc2F)c1C` gave a Cmax of 432 ng/mL (human, whole blood; oral, 400 mg single dose).
The Cmax of `CC(C)[C@H](N)C(=O)NCCCS(=O)(=O)O` is reported as 10000 ng/mL (human, plasma; oral, 256.5 mg twice daily days 2-7, day 7, fasted, capsule).
The Cmax of `C[C@@H](Nc1cc(F)cc(F)c1)c1cc(C(=O)N(C)C)cc2c(=O)cc(N3CCOCC3)oc12` is reported as 1650 ng/mL (human; oral, 180 mg twice daily, day 1, 5:2 schedule, single dose, geometric mean).
For `CN1C(=O)[C@@H](NC(=O)c2nnc(Cc3ccccc3)[nH]2)COc2cccnc21`, the Cmax was 1180 ng/mL (human, plasma; oral, 50 mg once daily, day 14, geometric mean).
`COc1cc(N2CCC(N3CCN(C)CC3)CC2)ccc1Nc1ncnc(Nc2ccccc2S(=O)(=O)C(C)C)n1` has a Cmax of 49.7 ng/mL (human, dose escalation arm, plasma; oral, 25 mg, day 1, mean).

Repeated from above:
`Cl.[2H]C([2H])([2H])CC(=O)c1cnc(NC(=O)C2CC2)cc1Nc1cccc(-c2ncn(C([2H])([2H])[2H])n2)c1OC` gave a Cmax of 38.6 ng/mL (geometric mean; human; oral, 5 mg single dose, fasted, liquid).
